Measurements pooled from the literature.
Matrix: plasma

| SMILES | species | route | dose | quantity | value |
| --- | --- | --- | --- | --- | --- |
| OC1(C(F)(F)F)CCN(c2nc(Nc3ccnc(C(F)(F)F)c3)nc(-c3cccc(C(F)(F)F)n3)n2)C1 (stereo not drawn) | Sprague-Dawley rat | intravenous | 1 mg/kg | AUC(0-inf) | 1210 ng·h/mL |
| COC(=O)C1=CNC=C(C(=O)OC)C1c1ccc(F)c(C(F)(F)F)c1 | male Sprague-Dawley rat | oral | 50 mg/kg | AUC(0-inf) | 4290 ng·h/mL |
| Cc1cc2c(cc1O)C=C1C=CC(=O)C(C)(C)[C@H]1CC2 | male Sprague-Dawley rat | intravenous | 2 mg/kg | AUC(0-inf) | 623 ng·h/mL |
| O=C(C1CCN(c2nnnn2-c2ccccc2)CC1)N1CCCc2ccccc21 | male Sprague-Dawley rat | oral | 5 mg/kg | AUC(0-t) | 5.8 ng·h/mL |
| C/C(N)=N/C(=N\S(=O)(=O)c1ccc(C(F)(F)F)cc1)N1C[C@H](c2ccccc2)C(c2ccc(Cl)cc2)=N1 | male Sprague-Dawley rat | intravenous | 2 mg/kg | AUC(0-inf) | 2790 ng·h/mL |
| CCC(CC)n1c(Cc2cccs2)nc2cc(C(=O)N[C@@H](CC(=O)O)c3ccccc3)ccc21 | male Sprague-Dawley rat | intravenous | 1 mg/kg | AUC(0-inf) | 551 ng·h/mL |
| O=c1c(-c2ccc(Cl)c(CN3CCOCC3)c2)coc2cc(O)ccc12 | male Sprague-Dawley rat | intravenous | 2 mg/kg | AUC(0-t) | 573 ng·h/mL |
| CCC(CC)n1c(Cc2ccco2)nc2cc(C(=O)N[C@@H](CC(=O)O)c3ccccc3)ccc21 | male Sprague-Dawley rat | intravenous | 1 mg/kg | AUC(0-inf) | 803 ng·h/mL |
| Cc1cccc(Cn2ncc3c4cc(F)c(CN(C)C)cc4n(C)c3c2=O)n1 | Sprague-Dawley rat | intravenous | 5 mg/kg | AUC(0-inf) | 1930 ng·h/mL |
